Measurements gathered from unrelated publications.
Each line is one published result; not all experiments were run side by side. ≈ marks a conversion by molar mass, not a printed value.
UniProt Q04759, sequence (whole entry, looked up): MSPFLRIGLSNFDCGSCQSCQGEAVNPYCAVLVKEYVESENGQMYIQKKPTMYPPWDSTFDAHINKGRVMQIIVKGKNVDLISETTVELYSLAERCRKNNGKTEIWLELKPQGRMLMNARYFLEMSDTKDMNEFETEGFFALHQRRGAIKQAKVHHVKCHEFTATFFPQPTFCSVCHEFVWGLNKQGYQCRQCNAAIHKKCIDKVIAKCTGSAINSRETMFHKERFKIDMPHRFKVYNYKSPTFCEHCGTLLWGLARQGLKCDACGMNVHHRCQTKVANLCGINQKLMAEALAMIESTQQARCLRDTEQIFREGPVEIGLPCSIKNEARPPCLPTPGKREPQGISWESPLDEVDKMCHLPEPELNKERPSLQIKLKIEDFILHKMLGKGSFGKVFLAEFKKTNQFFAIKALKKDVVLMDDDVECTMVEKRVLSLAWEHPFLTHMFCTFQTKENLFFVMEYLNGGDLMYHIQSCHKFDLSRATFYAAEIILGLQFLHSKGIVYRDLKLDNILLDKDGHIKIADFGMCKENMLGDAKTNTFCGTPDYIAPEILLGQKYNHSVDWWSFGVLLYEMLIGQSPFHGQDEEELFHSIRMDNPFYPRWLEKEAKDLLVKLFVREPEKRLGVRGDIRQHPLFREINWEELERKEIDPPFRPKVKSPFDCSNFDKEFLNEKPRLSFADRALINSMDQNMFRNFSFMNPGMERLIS
UniProt P08922, sequence (whole entry, looked up): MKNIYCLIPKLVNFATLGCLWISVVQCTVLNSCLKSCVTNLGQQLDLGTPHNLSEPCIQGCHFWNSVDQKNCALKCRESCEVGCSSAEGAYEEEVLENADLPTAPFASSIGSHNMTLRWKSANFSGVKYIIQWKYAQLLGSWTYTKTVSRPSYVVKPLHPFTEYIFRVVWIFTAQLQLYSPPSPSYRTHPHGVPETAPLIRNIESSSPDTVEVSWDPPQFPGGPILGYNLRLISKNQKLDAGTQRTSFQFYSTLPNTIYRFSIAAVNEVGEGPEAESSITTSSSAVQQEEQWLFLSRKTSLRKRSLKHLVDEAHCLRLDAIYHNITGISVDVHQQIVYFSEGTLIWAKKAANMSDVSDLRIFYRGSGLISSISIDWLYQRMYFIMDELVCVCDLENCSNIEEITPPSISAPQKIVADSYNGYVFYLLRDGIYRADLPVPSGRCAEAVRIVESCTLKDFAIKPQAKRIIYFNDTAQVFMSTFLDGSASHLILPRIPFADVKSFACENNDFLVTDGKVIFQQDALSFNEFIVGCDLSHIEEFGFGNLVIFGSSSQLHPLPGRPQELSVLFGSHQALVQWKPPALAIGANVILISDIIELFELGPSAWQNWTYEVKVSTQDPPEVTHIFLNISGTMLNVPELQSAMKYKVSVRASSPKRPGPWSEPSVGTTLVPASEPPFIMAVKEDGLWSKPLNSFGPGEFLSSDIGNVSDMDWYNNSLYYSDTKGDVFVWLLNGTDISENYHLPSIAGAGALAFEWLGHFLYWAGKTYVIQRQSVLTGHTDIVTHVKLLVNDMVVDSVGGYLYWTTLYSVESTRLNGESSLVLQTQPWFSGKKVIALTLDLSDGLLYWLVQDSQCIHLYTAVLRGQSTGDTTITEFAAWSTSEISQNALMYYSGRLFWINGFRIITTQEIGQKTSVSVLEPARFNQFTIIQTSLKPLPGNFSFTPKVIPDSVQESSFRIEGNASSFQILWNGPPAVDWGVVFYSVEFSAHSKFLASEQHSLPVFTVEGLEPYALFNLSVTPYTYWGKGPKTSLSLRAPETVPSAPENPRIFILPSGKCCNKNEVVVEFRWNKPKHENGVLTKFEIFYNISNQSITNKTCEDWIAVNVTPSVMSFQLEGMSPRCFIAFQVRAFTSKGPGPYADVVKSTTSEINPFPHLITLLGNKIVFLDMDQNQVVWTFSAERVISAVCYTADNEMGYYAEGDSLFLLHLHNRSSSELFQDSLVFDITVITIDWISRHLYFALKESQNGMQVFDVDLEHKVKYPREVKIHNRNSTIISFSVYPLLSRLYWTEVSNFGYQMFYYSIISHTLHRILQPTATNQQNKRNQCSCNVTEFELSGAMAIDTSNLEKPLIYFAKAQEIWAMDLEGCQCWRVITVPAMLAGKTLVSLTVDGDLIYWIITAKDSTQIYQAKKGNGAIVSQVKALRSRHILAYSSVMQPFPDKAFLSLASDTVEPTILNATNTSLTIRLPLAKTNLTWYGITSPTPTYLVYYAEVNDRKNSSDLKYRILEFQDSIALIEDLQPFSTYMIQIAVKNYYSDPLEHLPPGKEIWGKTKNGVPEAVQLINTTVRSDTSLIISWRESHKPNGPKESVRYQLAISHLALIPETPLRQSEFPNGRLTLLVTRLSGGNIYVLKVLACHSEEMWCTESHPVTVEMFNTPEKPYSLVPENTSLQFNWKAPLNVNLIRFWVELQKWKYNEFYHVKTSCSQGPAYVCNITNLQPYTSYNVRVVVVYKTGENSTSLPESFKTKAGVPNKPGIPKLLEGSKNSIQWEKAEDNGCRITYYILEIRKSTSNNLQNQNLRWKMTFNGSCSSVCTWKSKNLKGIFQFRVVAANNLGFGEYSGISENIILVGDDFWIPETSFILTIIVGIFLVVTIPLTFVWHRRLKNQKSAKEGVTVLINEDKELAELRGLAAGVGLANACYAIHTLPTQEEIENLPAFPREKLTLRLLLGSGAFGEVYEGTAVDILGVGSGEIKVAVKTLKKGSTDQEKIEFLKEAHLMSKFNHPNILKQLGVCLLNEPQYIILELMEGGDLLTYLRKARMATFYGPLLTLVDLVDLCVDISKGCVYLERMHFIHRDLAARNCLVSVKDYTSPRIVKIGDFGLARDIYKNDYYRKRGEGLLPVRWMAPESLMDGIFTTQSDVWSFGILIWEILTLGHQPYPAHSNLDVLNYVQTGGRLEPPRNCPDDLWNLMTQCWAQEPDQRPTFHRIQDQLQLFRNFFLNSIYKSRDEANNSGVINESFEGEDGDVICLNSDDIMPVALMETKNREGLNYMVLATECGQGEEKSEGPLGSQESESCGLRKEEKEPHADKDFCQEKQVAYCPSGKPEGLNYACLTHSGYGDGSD
UniProt O43781, sequence (whole entry, looked up): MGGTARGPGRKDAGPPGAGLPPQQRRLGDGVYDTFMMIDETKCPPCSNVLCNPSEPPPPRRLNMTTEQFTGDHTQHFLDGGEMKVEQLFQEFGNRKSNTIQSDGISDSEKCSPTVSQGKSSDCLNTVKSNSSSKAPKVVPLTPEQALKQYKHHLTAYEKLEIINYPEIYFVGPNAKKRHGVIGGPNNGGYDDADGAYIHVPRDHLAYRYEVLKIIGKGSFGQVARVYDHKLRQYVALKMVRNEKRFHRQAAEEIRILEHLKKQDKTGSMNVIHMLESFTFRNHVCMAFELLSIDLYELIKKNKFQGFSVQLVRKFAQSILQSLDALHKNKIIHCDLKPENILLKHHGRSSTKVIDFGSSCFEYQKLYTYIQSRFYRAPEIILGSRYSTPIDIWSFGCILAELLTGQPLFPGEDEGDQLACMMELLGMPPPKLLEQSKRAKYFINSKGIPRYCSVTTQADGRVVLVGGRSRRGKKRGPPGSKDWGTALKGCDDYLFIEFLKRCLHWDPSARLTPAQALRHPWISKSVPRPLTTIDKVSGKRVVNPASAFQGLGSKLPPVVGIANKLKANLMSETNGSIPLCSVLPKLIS
UniProt O14757, sequence (whole entry, looked up): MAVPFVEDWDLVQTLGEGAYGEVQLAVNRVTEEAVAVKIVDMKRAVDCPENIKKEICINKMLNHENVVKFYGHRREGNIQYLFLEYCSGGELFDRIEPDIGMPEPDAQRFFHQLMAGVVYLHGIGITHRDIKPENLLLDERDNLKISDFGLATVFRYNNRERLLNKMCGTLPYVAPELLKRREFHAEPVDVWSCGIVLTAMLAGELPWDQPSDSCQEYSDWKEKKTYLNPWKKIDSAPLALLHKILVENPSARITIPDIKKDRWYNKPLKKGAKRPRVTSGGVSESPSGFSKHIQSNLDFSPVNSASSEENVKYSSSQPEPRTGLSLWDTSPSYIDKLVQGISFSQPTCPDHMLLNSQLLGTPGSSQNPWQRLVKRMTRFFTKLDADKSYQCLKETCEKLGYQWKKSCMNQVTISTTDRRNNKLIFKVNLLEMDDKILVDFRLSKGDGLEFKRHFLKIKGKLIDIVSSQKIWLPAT

With `Cc1cc(C)c(C#N)c(SCC(=O)c2ccc(F)cc2F)n1` the EC50 was > 64 µM (Trypanosoma brucei; parasite growth, resazurin).
`COc1cc([C@H]2OC[C@H]3[C@@H]2CO[C@@H]3c2cc(OC)c(O)c(OC)c2)cc(OC)c1O` has an inhibition of 100% (Helicobacter pylori; microbial growth, broth dilution; 3.9 µg/mL).
The EC50 of `Cc1cc(C)c(C#N)c(OCC(=O)c2ccccc2)n1` is reported as 44.1 µM (Trypanosoma brucei; parasite growth, resazurin).
`COc1cc(-c2cncc3c2CN(C)Cc2cc(N4CCNCC4)ccc2-3)cc(OC)c1OC` has a remaining activity of 100% (Serine/threonine-protein kinase Chk1 (CHEK1, Homo sapiens, UniProt O14757); enzyme activity, inhibitor; 1 µM).
With `Cc1cc(NS(=O)(=O)c2ccc(N=NN(O)c3ccccc3)cc2)no1` the inhibition was 24.4% (DPPH scavenging, absorbance; 60 µg/mL).
With `C=CC(=O)N1CCC(COCC(=O)N2CCN(c3nc(-c4cnc(N)nc4C(F)F)nc(N4CCOC[C@@H]4C)n3)CC2)CC1` the remaining binding was 88% (Proto-oncogene tyrosine-protein kinase ROS (ROS1, Homo sapiens, UniProt P08922); binding, competition with immobilised ligand; 1 µM).
`CN(Cc1ccc(C(C)(C)C)cc1)Cc1cccc2ccccc12` gave an MFC of 500 µg/mL (≈ 1570 µM) (Trichophyton mentagrophytes; microbial killing, broth dilution; ATCC18748; 72 h).
With `CNc1ncc2c(/C=C/C(=O)N3CCC(OC)CC3)nn(Cc3cccc(C(F)(F)F)c3)c2n1` the remaining activity was 115% (Dual specificity tyrosine-phosphorylation-regulated kinase 3 (DYRK3, Homo sapiens, UniProt O43781); enzyme activity, inhibitor, radiometric; 1 µM).
The inhibition of `O=c1cc(-c2ccc(O)c(O)c2)oc2cc(O)cc(O)c12` is reported as 100% (Helicobacter pylori; microbial growth, broth dilution; 7.81 µg/mL).
`CN(C)CCCNC(=O)N[C@]12CCC(C)(C)C[C@H]1C1=CC[C@@H]3[C@@]4(C)CC[C@@H]5OC(C)(C)OC[C@@]5(C)[C@@H]4CC[C@@]3(C)[C@]1(C)CC2` has an inhibition of 97.1% (Leishmania mexicana; parasite growth, resazurin; 50 µM, amastigote).
The inhibition of `O=c1cc(-c2ccc(O)cc2)oc2cc(O)cc(O)c12` is reported as 51.1% (Helicobacter pylori; microbial growth, broth dilution; 0.48 µg/mL).
For `Cc1cc(C)c(C#N)c(SCC(=O)N2CCN(C)CC2)n1`, the EC50 was > 64 µM (Trypanosoma brucei; parasite growth, resazurin; RHODESIENSE).
`CCN(O)N=Nc1ccc(S(=O)(=O)Nc2nccs2)cc1` gave an inhibition of 17.5% (DPPH scavenging, absorbance; 180 µg/mL).
For `CC(=O)OC[C@H](OC(C)=O)[C@H](OC(C)=O)[C@@H](OC(C)=O)[C@@H]1OC[C@@]2(C)[C@@H]3CC[C@]4(C)[C@H](CC=C5[C@@H]6CC(C)(C)CC[C@]6(C(=O)O)CC[C@]54C)[C@@]3(C)CC[C@@H]2O1`, the inhibition was 95.8% (Leishmania mexicana; parasite growth, resazurin; 50 µM, amastigote).
For `Cc1cc(C)c(C#N)c(SCC(=O)N2CCOCC2)n1`, the EC50 was > 64 µM (Trypanosoma brucei; parasite growth, resazurin).
With `CN(Cc1ccc(C2(C(F)(F)F)CC2)cc1)Cc1cccc2ccccc12` the inhibition zone was ≥ 55 mm (Trichophyton mentagrophytes; microbial growth, disc diffusion; ATCC18748; 0.128 µg/mL, 72 h).
`CC1(C)CC[C@]2(CO)CC[C@]3(C)C(=CC[C@@H]4[C@@]5(C)CC[C@@H]6O[C@H]([C@H](O)[C@@H](O)[C@@H](O)CO)OC[C@@]6(C)[C@@H]5CC[C@]43C)[C@@H]2C1` has an inhibition of 100% (Leishmania mexicana; parasite growth, resazurin; 50 µM, amastigote).
The inhibition of `COc1ccc(-c2cc(=O)c3c(O)cc(O[C@@H]4O[C@H](CO)[C@@H](O)[C@H](O)[C@H]4O)cc3o2)cc1O` is reported as 100% (Helicobacter pylori; microbial growth, broth dilution; 31.25 µg/mL).
The EC50 of `Cc1cc(C)c(C#N)c(SCC(N)c2ccccc2)n1` (stereo not drawn) is reported as 14.8 µM (Trypanosoma brucei; parasite growth, resazurin).
The inhibition of `O=C(O)c1ccc(O)cc1` is reported as 100% (Helicobacter pylori; microbial growth, broth dilution; 7.81 µg/mL).
With `CCCCC(=O)Nc1ccc(-c2ccc3ncn(CCC)c(=O)c3c2)cn1` the remaining binding was 100% (Protein kinase C theta type (PRKCQ, Homo sapiens, UniProt Q04759); binding, competition with immobilised ligand; 0.5 µM).

For quick reference, copied from above:
`CN(Cc1ccc(C(C)(C)C)cc1)Cc1cccc2ccccc12` gave an MFC of 500 µg/mL (≈ 1570 µM) (Trichophyton mentagrophytes; microbial killing, broth dilution; ATCC18748; 72 h).
The EC50 of `Cc1cc(C)c(C#N)c(OCC(=O)c2ccccc2)n1` is reported as 44.1 µM (Trypanosoma brucei; parasite growth, resazurin).
